# Measurements collected from several papers.
# Numbered parts are unrelated; each lists some results of a single study. Substitutions count along the parent as printed.

# Study 1
# Target: CCNB2, cyclin fold, Cln2 fusion (human)
# Technique: yeast growth competition, sequencing
# Medium: yeast
# Notes: weak parent motif
# Reference: not given
# Reading: higher = stronger binding
# Starting sequence: viral docking peptide; KGVKRKLFAEDSS
Change,normalised enrichment score
D11Y,0.359
D11V,0.454
K4P,0.0426
R5F,0.54
V3M,0.147
S12W,1.05
R5T,0.284
D11L,0.334
V3Y,0.476
V3K,0.507
K6V,0.66
S12K,0.824
K6M,0.746
F8A,0.275
F8Q,0.543
E10G,0.711
L7C,0.13
R5N,0.347
S12A,0.876
F8V,0.62
D11H,0.897
K6P,0.575
K6T,0.824
K4E,0.143
R5M,0.127

# Study 2
# Target: Centromere-binding protein 1, full length, His-tagged (CBF1, Saccharomyces cerevisiae, UniProt P17106, residues 1-351)
# Chain of UniProt P17106 (whole entry, looked up): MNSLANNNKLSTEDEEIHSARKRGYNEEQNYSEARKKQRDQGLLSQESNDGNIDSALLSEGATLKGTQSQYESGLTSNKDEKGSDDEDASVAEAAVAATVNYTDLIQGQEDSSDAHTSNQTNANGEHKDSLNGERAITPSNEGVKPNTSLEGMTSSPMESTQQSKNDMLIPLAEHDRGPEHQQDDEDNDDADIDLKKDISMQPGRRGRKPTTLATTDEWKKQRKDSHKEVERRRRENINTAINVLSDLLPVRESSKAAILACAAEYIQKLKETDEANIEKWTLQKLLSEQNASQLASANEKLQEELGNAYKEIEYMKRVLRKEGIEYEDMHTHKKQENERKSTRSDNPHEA
# Technique: competition protein-binding microarray
# Molecule type: double-stranded DNA, one strand shown
# Medium: in vitro
# Concentration: 2 µM
# Notes: whole 60-bp probe, lowest competitor level
# Added: Pho4 competitor, 0.05 µM
# Reading: higher = stronger binding
# Constant ends, left off below: … GTCTTGATTCGCTTGACGCTGCTG
Strand,fluorescence intensity [a.u.]
CTTCTGTAAATTTGTTTAGTGGGTGGACGCGCCCCG,80.9
AAGAGCTTCTTGCGCTTTTTATCCCCATGGACTAGG,72.3
GTCTTGTCTCATTTTCACGTGTGGTTCCCCACTTCA,478
AAAGCGGTAATTTGAGGGGTGGGTGCAGATATCTAT,72.8
GCTGTGATAAAGAACTTCGTGCTTTTTTGGGTTACA,75.2
CATACCCAACCTTGACATGTGGGTGAAGATATTTGT,94.2
TTTCCAAAACTCCAACACGTGATGGATAAGATAGTC,4290
CAAATCTCGGAATTTATCATGACGGATTACATAACA,101

# Study 3
# Target: Fragile X messenger ribonucleoprotein 1, C-terminal low-complexity region (Fmr1, Mus musculus, UniProt P35922)
# Technique: RNA Bind-n-Seq
# Molecule type: RNA
# Medium: in vitro
# Concentration: 200 nM
# Notes: whole 134-nt RNA, ends assumed
# Added: 150 mM KCl
# Reference: input library
# Reading: higher = stronger binding
# Constant ends, left off below: GGGAGUUCUACAGUCCGACGAUC … UGGAAUUCUCGGGUGUCAAGG
Strand,log2 enrichment
UGGCCCUGGUGGCAUGCGGGGAGGAAGAGGUGGCCUCAUGGAUCGUGGUGGUCCGGGUGGAAUGUUCAGAGGUGGCCGUGGUGGAGACAG,0.125
UCCUCAAGUCCUGUGCUACACAUCGUAUGUACCGAAUCGGGGAGGAGGAGGAAAGUAUUAUGUUACGCCGUUCGGAUCUGCACUUCCAGC,-0.266
CACAGACAACACGCACCCACACAGACACAGAGGGACGGGGUUGGGAUGGGGACAGGGUGCACAGCAGGGCGGGGUAGGACCCCAGCCCCU,1.47
GCAGGAAGUAAAAACAAAUGGAAAUGCUUCGGAUAGUGGCAGGGGUGGGGGUUGCUAAGGAAAGCGUGGGAUGGGAGUGGGUAAAGAGUU,0.481
UAACUUUAGAGGAGGAUCUGAUGGAUAUGGCAGUGGACGUGGACUUGGGGAUGGCUAUAAUGGGUAUGGAGGAGGACCUGGAGGUGGCAA,0.21
AAGUCCUGUGCUACACAUCGUAUGUACCGAAUCGGGGAAAGGGGAAAGGAAAGGGGAAAGUAUUAUGUUACGCCGUUCGGAUCUGCACUU,0.459
CAAGUCCUGUGCUACACAUCGUAUGUACCGAAUCGGGUGGGUUUUUUUGGGAGGGAAAGUAUUAUGUUACGCCGUUCGGAUCUGCACUUC,0.727
AAAAUGCAGGUGGGCAUCUUUGGGAAGUGGGGCAAGGGGGGGAUAGGGAGGGGGGUAACACUUUGGGAACAGGUGGUCCCAGGUCGUUUC,0.863

# Study 4
# Target: Interferon regulatory factor 7, full length, phosphomimetic (IRF7, Homo sapiens, UniProt Q92985, residues 1-503, S471D/S472D/S475D/S476D/S477D/S483D/S484D/S487D)
# Technique: protein-binding microarray
# Molecule type: double-stranded DNA, one strand shown
# Medium: in vitro
# Concentration: 2200 nM top
# Notes: 60-bp whole probe
# Added: salmon DNA 0.4 mg/ml
# Reference: random background probes
# Reading: higher = stronger binding
# Constant ends, left off below: GCCTAGCAC … GTCTTGATTCGCTTGACGCTGCTG
# Construct (chain): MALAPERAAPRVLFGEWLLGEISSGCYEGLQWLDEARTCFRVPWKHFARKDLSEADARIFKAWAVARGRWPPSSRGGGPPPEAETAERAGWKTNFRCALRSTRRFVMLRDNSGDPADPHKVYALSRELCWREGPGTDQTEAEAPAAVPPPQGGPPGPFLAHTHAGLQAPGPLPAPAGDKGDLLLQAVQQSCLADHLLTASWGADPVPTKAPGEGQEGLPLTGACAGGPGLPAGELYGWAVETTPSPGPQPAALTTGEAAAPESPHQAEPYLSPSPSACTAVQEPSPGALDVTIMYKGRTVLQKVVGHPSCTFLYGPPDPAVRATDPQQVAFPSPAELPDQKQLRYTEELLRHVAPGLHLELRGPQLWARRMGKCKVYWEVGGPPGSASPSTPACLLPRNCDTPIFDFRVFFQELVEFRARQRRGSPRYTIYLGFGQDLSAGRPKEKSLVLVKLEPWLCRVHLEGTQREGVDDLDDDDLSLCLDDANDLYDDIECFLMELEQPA
Strand,fitted relative affinity [z-score]
TTAGGTTTCGGGGTTCGGTTAGTGCTA,3.77
GACGGTATCGGACTGTGGACGTGCTAG,-0.243
CTGAGGCTGCCGTGGCCATGGTGCTAG,-1.41
GACGATTACGGGACTGGAGACGTGCTA,-0.212
GACGGTTTCGGTCTCGAGACGTGCTAG,6.16
GCTTCCTCCTACCCGACCCCGTGCTAG,1.92
GACGCTTTCGGTATCGGGACGTGCTAG,8.43
ACCCATTGAGATTTTCATTATGTGCTA,0.814

# Mixed results
# P1: PafA, mature enzyme, eGFP fusion (Elizabethkingia meningoseptica, UniProt Q9KJX5); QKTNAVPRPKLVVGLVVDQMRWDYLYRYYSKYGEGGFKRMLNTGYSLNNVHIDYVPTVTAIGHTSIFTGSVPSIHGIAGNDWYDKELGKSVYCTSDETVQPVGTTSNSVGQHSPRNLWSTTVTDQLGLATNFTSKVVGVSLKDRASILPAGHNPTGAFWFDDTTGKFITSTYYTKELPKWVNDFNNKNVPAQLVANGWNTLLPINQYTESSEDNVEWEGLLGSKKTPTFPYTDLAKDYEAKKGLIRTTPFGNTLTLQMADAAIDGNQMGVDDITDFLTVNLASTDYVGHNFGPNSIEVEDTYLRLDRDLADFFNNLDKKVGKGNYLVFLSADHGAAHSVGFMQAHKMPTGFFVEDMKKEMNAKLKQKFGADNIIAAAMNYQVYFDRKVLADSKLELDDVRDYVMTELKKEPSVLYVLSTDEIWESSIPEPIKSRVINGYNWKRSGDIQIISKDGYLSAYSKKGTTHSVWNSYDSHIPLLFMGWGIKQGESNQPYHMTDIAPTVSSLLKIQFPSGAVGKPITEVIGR
Molecule,target or system,assay,test system,conditions,how to read,quantity,value
P1 S90V,"inorganic phosphate, free oxyanion",microfluidic competitive inhibition,"in vitro, cell-free expressed","not given, derived from inhibition constants, unchanged parent 615000 nM",lower = stronger binding,phosphate dissociation constant,1.14 mM
O=C(Nc1ccc2c(O)cc(S(=O)(=O)[O-])cc2c1)Nc1ccc2c(O)cc(S(=O)(=O)[O-])cc2c1.[Na+].[Na+],,"dsDNA unwinding, PicoGreen fluorescence",annealed dsDNA substrate,20 µM,,effect,16.4%

# Repeated from above (mixed results):
Molecule,target or system,assay,test system,conditions,how to read,quantity,value
P1 S90V,"inorganic phosphate, free oxyanion",microfluidic competitive inhibition,"in vitro, cell-free expressed","not given, derived from inhibition constants, unchanged parent 615000 nM",lower = stronger binding,phosphate dissociation constant,1.14 mM
O=C(Nc1ccc2c(O)cc(S(=O)(=O)[O-])cc2c1)Nc1ccc2c(O)cc(S(=O)(=O)[O-])cc2c1.[Na+].[Na+],,"dsDNA unwinding, PicoGreen fluorescence",annealed dsDNA substrate,20 µM,,effect,16.4%
